Published values from different studies.
Numbered parts are unrelated; each lists some results of a single study. “And” joins repeats or separate records; there may be more than shown.
Chain of UniProt Q5S007 (whole entry, looked up): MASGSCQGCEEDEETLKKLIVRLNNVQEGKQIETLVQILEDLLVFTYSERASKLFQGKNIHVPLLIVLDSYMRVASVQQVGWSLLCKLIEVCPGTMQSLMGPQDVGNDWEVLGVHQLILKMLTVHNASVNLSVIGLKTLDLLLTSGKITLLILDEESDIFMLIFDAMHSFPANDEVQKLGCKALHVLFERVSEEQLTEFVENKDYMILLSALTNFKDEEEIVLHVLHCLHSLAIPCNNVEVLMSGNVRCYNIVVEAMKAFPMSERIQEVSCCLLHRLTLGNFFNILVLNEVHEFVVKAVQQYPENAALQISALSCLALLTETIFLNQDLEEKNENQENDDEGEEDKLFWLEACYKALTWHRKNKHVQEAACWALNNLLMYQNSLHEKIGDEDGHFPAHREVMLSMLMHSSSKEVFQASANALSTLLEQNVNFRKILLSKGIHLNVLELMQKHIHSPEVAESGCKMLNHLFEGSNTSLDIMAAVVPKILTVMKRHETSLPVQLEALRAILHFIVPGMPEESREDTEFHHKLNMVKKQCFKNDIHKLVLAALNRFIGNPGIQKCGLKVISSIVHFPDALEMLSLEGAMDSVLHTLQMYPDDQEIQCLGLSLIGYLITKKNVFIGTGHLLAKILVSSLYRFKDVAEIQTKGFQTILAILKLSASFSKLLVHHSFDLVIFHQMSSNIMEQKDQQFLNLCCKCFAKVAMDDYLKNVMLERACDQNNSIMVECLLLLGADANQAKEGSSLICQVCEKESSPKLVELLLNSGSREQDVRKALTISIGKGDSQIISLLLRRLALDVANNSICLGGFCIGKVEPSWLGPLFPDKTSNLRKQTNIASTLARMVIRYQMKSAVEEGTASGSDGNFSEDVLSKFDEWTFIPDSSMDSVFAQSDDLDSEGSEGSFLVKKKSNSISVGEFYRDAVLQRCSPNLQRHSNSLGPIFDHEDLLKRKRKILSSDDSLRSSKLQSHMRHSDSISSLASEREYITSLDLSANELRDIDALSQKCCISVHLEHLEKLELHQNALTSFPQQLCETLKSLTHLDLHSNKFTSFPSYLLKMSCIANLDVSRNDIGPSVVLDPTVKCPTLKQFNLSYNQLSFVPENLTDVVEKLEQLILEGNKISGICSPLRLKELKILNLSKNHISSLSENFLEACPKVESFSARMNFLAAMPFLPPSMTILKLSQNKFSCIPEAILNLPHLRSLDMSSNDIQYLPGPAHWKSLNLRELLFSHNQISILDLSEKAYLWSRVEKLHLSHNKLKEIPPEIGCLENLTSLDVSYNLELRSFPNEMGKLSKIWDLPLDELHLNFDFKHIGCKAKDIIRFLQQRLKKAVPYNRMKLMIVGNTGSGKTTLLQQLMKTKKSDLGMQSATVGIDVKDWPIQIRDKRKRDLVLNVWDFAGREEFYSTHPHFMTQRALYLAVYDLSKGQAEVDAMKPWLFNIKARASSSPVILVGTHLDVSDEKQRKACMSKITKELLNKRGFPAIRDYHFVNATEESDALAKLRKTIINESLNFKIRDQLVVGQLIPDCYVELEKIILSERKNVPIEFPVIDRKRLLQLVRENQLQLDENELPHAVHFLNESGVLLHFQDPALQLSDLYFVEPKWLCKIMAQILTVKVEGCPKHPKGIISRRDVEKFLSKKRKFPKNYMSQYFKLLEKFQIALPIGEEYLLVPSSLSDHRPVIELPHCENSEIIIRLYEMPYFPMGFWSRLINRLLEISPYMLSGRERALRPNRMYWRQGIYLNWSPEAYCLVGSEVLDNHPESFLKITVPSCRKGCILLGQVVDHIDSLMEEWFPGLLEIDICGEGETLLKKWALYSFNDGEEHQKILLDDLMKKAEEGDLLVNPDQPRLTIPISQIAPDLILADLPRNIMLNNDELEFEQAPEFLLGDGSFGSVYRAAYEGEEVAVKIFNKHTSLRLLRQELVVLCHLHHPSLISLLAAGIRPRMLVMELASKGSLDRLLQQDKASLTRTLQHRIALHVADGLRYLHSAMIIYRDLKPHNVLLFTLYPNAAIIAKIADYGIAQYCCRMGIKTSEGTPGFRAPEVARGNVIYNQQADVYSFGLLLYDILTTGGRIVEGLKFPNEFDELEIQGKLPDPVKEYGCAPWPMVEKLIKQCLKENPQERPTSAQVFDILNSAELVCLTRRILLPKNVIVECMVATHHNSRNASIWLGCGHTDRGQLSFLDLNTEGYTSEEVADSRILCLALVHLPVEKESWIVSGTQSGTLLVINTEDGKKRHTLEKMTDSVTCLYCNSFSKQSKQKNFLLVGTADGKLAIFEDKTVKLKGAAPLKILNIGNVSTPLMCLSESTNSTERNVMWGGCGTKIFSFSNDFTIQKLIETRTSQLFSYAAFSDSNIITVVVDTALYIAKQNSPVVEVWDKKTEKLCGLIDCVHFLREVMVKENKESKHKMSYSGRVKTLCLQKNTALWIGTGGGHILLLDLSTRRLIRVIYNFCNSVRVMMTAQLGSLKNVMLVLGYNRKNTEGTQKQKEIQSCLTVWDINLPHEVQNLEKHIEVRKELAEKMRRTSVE

Sample 1 — observed: enzyme activity; mode: inhibitor; tested at: 0.5 µM; baseline: control
Structure (SMILES): COc1ccc(S(=O)(=O)N(CCO)c2ccccc2CN(C)CC=Cc2ccc(Cl)cc2)cc1
target | remaining activity [%]
Serine/threonine-protein kinase Chk1 (CHEK1, Homo sapiens, UniProt O14757) | 93.5
Protein kinase C delta type (PRKCD, Homo sapiens, UniProt Q05655) | 94.3
MAP kinase-interacting serine/threonine-protein kinase 2 (MKNK2, Homo sapiens, UniProt Q9HBH9) | 102
Serine/threonine-protein kinase 38 (STK38, Homo sapiens, UniProt Q15208) | 98.3
Tyrosine-protein kinase BTK (BTK, Homo sapiens, UniProt Q06187) | 96.4
RAC-gamma serine/threonine-protein kinase (AKT3, Homo sapiens, UniProt Q9Y243) | 105
Casein kinase I isoform alpha (CSNK1A1, Homo sapiens, UniProt P48729) | 99.3
Mast/stem cell growth factor receptor Kit (KIT, Homo sapiens, UniProt P10721) | 103
Mitogen-activated protein kinase 13 (MAPK13, Homo sapiens, UniProt O15264) | 102
Casein kinase II subunit alpha (CSNK2A1, Homo sapiens, UniProt P68400) | 99.5
Serine/threonine-protein kinase WNK2 (WNK2, Homo sapiens, UniProt Q9Y3S1) | 97.1
Interleukin-1 receptor-associated kinase 4 (IRAK4, Homo sapiens, UniProt Q9NWZ3) | 97.2
Ephrin type-A receptor 5 (EPHA5, Homo sapiens, UniProt P54756) | 98.1
cGMP-dependent protein kinase 1 (PRKG1, Homo sapiens, UniProt Q13976) | 94.7
Tyrosine-protein kinase Lyn (LYN, Homo sapiens, UniProt P07948) | 96.8
Dual specificity mitogen-activated protein kinase kinase 6 (MAP2K6, Homo sapiens, UniProt P52564) | 108
Mitogen-activated protein kinase kinase kinase 10 (MAP3K10, Homo sapiens, UniProt Q02779) | 92.4
Cyclin-dependent kinase 9, with cyclin T1 (CDK9, Homo sapiens, UniProt P50750) | 103
Serine/threonine-protein kinase PLK2 (PLK2, Homo sapiens, UniProt Q9NYY3) | 102
Serine/threonine-protein kinase Nek4 (NEK4, Homo sapiens, UniProt P51957) | 98.7
Leucine-rich repeat serine/threonine-protein kinase 2 (LRRK2, Homo sapiens, UniProt Q5S007) | 101
Mitogen-activated protein kinase kinase kinase kinase 2 (MAP4K2, Homo sapiens, UniProt Q12851) | 92.6
Mitogen-activated protein kinase 12 (MAPK12, Homo sapiens, UniProt P53778) | 98.9

Sample 2 — observed: cell-free assay; tested at: 10 µM
SMILES: COc1ccc2c(c1)O[C@H](c1ccc(OC)c(OC)c1)C[C@@H]2NC(=O)C1(c2ccc3c(c2)OC(F)(F)O3)CC1
target | inhibition
Alpha-2A adrenergic receptor (ADRA2A, Homo sapiens, UniProt P08913) | 17.6%
5-hydroxytryptamine receptor 3A (HTR3A, Homo sapiens, UniProt P46098) | -1.13%
Alpha-1A adrenergic receptor (ADRA1A, Homo sapiens, UniProt P35348) | -10.2%
D(1A) dopamine receptor (DRD1, Homo sapiens, UniProt P21728) | 29.2%
Muscarinic acetylcholine receptor M5 (CHRM5, Homo sapiens, UniProt P08912) | 2.95%
5-hydroxytryptamine receptor 6 (HTR6, Homo sapiens, UniProt P50406) | -7.58%
5-hydroxytryptamine receptor 7 (HTR7, Homo sapiens, UniProt P34969) | -22.9%
Sigma non-opioid intracellular receptor 1 (SIGMAR1, Homo sapiens, UniProt Q99720) | 82.8%
Histamine H1 receptor (HRH1, Homo sapiens, UniProt P35367) | 22.3%

Sample 3 — observed: enzyme activity; tested at: concentration not given; notes: without ssDNA
Target: DNA polymerase theta, helicase domain (POLQ, Homo sapiens, UniProt O75417)
Chain of UniProt O75417 (whole entry, looked up): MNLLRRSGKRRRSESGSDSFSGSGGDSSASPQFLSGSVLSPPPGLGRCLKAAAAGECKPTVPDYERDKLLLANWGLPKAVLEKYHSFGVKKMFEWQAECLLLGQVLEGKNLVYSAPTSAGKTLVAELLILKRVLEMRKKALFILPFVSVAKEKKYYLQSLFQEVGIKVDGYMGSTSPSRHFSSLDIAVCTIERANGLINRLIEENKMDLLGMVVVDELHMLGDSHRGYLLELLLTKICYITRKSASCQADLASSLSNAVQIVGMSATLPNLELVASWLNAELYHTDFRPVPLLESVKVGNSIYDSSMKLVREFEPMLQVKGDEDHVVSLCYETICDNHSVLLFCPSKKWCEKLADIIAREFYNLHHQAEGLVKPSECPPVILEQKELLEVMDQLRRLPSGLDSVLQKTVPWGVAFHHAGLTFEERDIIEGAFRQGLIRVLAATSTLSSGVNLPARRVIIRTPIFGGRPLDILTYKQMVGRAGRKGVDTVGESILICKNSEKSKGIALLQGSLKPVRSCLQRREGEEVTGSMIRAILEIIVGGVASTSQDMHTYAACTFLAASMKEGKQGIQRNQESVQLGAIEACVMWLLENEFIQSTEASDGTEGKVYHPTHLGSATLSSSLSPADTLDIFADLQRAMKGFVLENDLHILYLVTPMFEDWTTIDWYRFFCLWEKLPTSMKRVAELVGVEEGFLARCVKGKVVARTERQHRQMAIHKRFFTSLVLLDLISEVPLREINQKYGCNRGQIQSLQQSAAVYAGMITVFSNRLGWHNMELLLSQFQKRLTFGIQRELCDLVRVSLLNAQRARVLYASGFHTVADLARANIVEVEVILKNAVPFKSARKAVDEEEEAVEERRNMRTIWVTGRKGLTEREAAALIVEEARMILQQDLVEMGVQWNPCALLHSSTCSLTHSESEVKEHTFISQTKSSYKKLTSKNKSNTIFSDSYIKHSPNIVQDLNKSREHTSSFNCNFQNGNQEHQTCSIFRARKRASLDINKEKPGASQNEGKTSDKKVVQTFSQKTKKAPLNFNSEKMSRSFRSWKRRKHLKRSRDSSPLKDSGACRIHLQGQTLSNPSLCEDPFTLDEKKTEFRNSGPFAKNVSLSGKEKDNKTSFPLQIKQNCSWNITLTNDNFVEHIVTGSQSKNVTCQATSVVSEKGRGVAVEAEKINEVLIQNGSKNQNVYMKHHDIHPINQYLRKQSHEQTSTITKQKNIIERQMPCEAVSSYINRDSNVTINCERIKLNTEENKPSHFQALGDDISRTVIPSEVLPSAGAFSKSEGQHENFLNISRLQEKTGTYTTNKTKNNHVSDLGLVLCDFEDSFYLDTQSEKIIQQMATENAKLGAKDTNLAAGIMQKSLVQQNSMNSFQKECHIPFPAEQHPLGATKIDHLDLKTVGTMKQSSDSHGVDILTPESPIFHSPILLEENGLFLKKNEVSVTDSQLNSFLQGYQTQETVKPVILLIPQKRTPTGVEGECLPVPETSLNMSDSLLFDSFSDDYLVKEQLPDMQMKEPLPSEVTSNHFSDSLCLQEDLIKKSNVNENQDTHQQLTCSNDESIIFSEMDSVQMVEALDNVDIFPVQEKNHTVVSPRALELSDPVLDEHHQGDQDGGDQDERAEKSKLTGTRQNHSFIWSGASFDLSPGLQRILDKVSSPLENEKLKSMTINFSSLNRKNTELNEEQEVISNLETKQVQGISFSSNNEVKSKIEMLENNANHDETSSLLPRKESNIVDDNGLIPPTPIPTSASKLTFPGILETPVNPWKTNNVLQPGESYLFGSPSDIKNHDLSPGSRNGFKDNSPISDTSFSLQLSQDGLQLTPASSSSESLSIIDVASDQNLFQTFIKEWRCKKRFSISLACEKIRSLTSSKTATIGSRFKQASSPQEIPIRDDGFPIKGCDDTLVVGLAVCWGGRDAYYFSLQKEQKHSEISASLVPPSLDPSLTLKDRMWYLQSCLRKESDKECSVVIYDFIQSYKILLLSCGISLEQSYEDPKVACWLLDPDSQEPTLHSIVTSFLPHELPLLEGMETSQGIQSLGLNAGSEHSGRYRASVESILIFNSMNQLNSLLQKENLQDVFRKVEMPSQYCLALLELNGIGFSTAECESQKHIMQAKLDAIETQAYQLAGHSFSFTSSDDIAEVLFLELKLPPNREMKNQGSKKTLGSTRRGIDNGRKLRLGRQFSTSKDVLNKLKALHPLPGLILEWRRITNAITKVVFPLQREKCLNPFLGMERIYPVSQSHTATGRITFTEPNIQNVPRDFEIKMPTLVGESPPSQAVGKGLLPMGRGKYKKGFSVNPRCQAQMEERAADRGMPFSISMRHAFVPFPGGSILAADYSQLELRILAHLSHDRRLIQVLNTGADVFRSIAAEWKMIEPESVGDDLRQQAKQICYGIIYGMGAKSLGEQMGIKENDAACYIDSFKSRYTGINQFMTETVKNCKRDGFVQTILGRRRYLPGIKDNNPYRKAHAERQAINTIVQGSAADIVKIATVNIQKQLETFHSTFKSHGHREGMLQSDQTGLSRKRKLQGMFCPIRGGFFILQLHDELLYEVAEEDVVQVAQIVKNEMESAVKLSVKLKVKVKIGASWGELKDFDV
SMILES | remaining activity
Cc1ccccc1C(=O)Nc1sc2c(c1C(=O)O)CCC(C(C)(C)C)C2 (stereo not drawn) | 30.4%
Cc1ccc(-c2n[nH]c3c2C(c2ccccc2Cl)N(c2ccc(C(=O)O)cc2)C3=O)cc1 (stereo not drawn) | 84.6%
CC(=O)[C@]1(O)Cc2c(O)c3c(c(O)c2[C@@H](O[C@H]2C[C@H](N)[C@H](O)[C@H](C)O2)C1)C(=O)c1ccccc1C3=O | 101% and 99.7%
CC[N+](C)(CC)CCC[n+]1c(-c2ccccc2)c2cc(N)ccc2c2ccc(N)cc21 | 110%
COc1cccc2c1C(=O)c1c(O)c3c(c(O)c1C2=O)C[C@@](O)(C(=O)CO)C[C@@H]3O[C@H]1C[C@H](N)[C@H](O)[C@H](C)O1 | 96.2%
COc1cc2c(cc1Cc1cccc(Cl)c1F)c(=O)c(C(=O)O)cn2[C@H](CO)C(C)C | 33%
CCCCCCCCCCCCc1ccc(S(=O)(=O)Nc2nncs2)cc1 | 92.4%
Cc1ccc(C(=O)Nc2ccccc2C(=O)O)cc1S(=O)(=O)N1CCCCCC1 | 64.6%
CSc1ccc(/C=C/c2nc3ccccc3n2S(=O)(=O)c2cccc(Cl)c2)cc1 | 65.5%
O=C(Nc1cc2cc[nH]c2cn1)c1ccccc1 | 51.3%

Sample 4
Compound: CC[C@@H](C)c1nc2cc(Nc3ccnc4ccc(S(=O)(=O)C(C)C)cc34)ccc2s1
tested on | assay | system | setting | CC50
 | CCK-8 | L929 RIPK3 knockout, mouse | MEM with 10% FBS | 75.7 µM and 56 µM
L929 RIPK3 knockout | cell viability |  | without zVAD, 10% FBS, mean of 3 | 61.4 µM
L929 | cell viability, CCK-8 |  | without zVAD, 10% FBS, mean of 3 | 57.7 µM
L929 RIPK3 knockout | cell viability |  | 10% FBS, mean of 3, together with: zVAD | 65 µM
L929 | cell viability, CCK-8 |  | 10% FBS, mean of 3, together with: zVAD | 55.5 µM
 | CCK-8 | L929 RIPK3 knockout, mouse | MEM with 10% FBS, together with: zVAD | 85.4 µM and 54.8 µM

A few entries again (sample 1):
target | remaining activity [%]
Mitogen-activated protein kinase 13 (MAPK13, Homo sapiens, UniProt O15264) | 102
Casein kinase II subunit alpha (CSNK2A1, Homo sapiens, UniProt P68400) | 99.5
Serine/threonine-protein kinase WNK2 (WNK2, Homo sapiens, UniProt Q9Y3S1) | 97.1
Interleukin-1 receptor-associated kinase 4 (IRAK4, Homo sapiens, UniProt Q9NWZ3) | 97.2
Ephrin type-A receptor 5 (EPHA5, Homo sapiens, UniProt P54756) | 98.1
cGMP-dependent protein kinase 1 (PRKG1, Homo sapiens, UniProt Q13976) | 94.7
